Experimental data from different studies.
Every numbered part comes from another study and shows a few of its results, in no order.

Sample 1
Target: Interferon regulatory factor 5, full length, phosphomimetic (IRF5, Homo sapiens, UniProt Q13568-2, residues 1-514, K96S/S451D/S453D/S456D/S462D)
Method: protein-binding microarray
Molecule type: double-stranded DNA, one strand shown
Medium: in vitro
Tested at: 250 nM
Notes: 60-bp whole probe
With: salmon DNA 0.4 mg/ml
Reference: random background probes
Reading: higher = stronger binding
Constant ends, left off below: GCCTAGCAC … GTCTTGATTCGCTTGACGCTGCTG
Strand | log fluorescence [z-score]
GGGTGTGTGAGTGTGTGTGCGTGCTAG | -0.743
GACGGACTGCTTCTCCTGACGTGCTAG | -0.14
CATCATTTTTCCCTCTGGAAGTGCTAG | 1.08
GACGGGATCCTTCTCCTGACGTGCTAG | -0.152
TCAACTCCAGTTCTGGGACTGTGCTAG | -0.387
TTAGGTCTCCTTCTCCCTTAGTGCTAG | -0.171
CACGAACTGAGTTTCGAGACGTGCTAG | 4.69
GACGGTATCGGGACTGGGGAAGTGCTA | 1.27
TATTACCTCATCTTCCTCTGCGTGCTA | 0.623
GACGATATCAGTTTCGAGACGTGCTAG | 6.74
AAACAAGTCAATGGCCTTTCGTGCTAG | 0.545
TTAGGACTGGGTCTCGGTCAGTGCTAG | -0.227
GACGAACTGAGTATCGAAACGTGCTAG | 4.55
GACGGATTCGGGTTTCGGGACGTGCTA | 2.1
GCAACATTCACCATGGCTAGGTGCTAG | 0.182
CTCACCCAGTCCAGACACCCGTGCTAG | -0.521
AAATTCTGATATAATTCAAAGTGCTAG | 0.795
TTAGAACTGAGTCTCGAGTAGTGCTAG | -0.0488
GGCCCAGGAGGAGGCCCCTCGTGCTAG | -0.688
TCACTTTTATTTTCAGTACTGTGCTAG | 3.52
GACGGTTTCGGTTTCGGGGCGTGCTAG | 10.5
GACGGTATCGGGACTGAGGACGTGCTA | 1.05
GCCGGACTGGGTTTCGGGACGTGCTAG | 1.95
TAAGGTTTCGGTTCCGGTTAGTGCTAG | 9.83

Sample 2
Target: Ras GTPase-activating protein-binding protein 1, RRM domain (G3BP1, Homo sapiens, UniProt Q13283)
Sequence of UniProt Q13283 (whole entry, looked up): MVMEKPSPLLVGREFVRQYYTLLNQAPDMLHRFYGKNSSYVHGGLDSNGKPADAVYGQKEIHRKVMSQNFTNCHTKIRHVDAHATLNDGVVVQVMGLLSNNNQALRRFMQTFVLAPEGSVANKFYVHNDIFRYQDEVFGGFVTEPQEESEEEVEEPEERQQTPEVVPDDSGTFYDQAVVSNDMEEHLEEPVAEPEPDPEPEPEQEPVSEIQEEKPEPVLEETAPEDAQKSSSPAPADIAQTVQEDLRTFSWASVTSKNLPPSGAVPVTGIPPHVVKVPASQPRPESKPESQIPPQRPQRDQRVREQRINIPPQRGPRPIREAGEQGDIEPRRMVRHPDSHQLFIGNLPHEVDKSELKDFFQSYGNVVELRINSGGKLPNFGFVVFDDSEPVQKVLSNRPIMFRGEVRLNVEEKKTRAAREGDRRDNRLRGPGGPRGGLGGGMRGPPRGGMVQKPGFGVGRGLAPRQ
Method: RNA Bind-n-Seq
Molecule type: RNA
Medium: in vitro
Tested at: 1 µM
Notes: whole 134-nt RNA, ends assumed
With: 150 mM KCl
Reference: input library
Reading: higher = stronger binding
Strand | log2 enrichment
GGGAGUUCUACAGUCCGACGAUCCCUCAAGUCCUGUGCUACACAUCGUAUGUACCGAAUCGGGAAGGAAGGGAAGGAAAGUAUUAUGUUACGCCGUUCGGAUCUGCACUUCCAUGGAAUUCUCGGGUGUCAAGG | -0.271
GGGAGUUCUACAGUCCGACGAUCAGUCCUGUGCUACACAUCGUAUGUACCGAAUCAAACCCCCAAAUUUAAAUUUUUAAAAAAGUAUUAUGUUACGCCGUUCGGAUCUGCACUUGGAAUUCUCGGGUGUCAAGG | -0.331
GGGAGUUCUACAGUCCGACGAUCCAAGUCCUGUGCUACACAUCGUAUGUACCGAAUCGGGUUUGGGUUUGGGUUUGGGGAAAGUAUUAUGUUACGCCGUUCGGAUCUGCACUUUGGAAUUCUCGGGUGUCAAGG | 0.824
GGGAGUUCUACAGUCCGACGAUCGGGUGGACACUGACGAGCUGGACAGCAACGUGGACGACUGGGAAGAGGAGACCAUUGAGUUCUUCGUCACUGAAGAAAUCAUUCCCCUCGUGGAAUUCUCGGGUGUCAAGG | -0.275
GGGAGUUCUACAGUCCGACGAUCAGUCCUGUGCUACACAUCGUAUGUACCGAAUCGGGAAAGGGAAAAAGGGUUUUUGGGAAAGUAUUAUGUUACGCCGUUCGGAUCUGCACUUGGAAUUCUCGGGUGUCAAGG | 0.23
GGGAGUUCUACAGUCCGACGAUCAGUCCUGUGCUACACAUCGUAUGUACCGAAUCGGAAAAAGGAAAAAGGUUUUUUUGGAAAGUAUUAUGUUACGCCGUUCGGAUCUGCACUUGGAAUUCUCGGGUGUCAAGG | -0.183
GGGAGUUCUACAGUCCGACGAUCAAAGCAAGAGAUGGCUAGUGCUUCAUCCAGCCAAAGAGGUAUGCUUGUUGCUUAAUUAAACCUUAAAGGUAACUUUGAGUUACUCCAGUAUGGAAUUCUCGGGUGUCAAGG | -0.149
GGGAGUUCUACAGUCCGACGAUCGUCCUGUGCUACACAUCGUAUGUACCGAAUCGGGUUUUUUGGGUUUUUUGGUUUUUUGGAAAGUAUUAUGUUACGCCGUUCGGAUCUGCAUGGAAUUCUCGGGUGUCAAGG | -0.19
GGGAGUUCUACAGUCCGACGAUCCUCAAGUCCUGUGCUACACAUCGUAUGUACCGAAUCGGGAAGGGGAAGGAAGGGAAAGUAUUAUGUUACGCCGUUCGGAUCUGCACUUCCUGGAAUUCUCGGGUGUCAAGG | -0.153
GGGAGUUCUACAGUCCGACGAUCUCAAGUCCUGUGCUACACAUCGUAUGUACCGAAUCGGAAAGGGGAAAGGGAAAGGAAAGUAUUAUGUUACGCCGUUCGGAUCUGCACUUCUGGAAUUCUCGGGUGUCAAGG | -0.197
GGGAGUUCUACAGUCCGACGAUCCAAGUCCUGUGCUACACAUCGUAUGUACCGAAUCGGUUUUUUUGGUUUUUGGAGGAAAGUAUUAUGUUACGCCGUUCGGAUCUGCACUUCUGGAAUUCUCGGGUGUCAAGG | -0.301
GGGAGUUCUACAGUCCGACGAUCGCAGGAAGUAAAAACAAAUGGAAAUGCUUCGGAUAGUGGCAGGGGUGCGGGUUGCUAAGGAAAGGGUGGGAUGGGAGUGGGUAAAGAGUUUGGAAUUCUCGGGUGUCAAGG | 0.761
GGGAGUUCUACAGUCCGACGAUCGUCCUGUGCUACACAUCGUAUGUACCGAAUCAAACCCCCCCAAAUUUAAACCCCCAAAAAAGUAUUAUGUUACGCCGUUCGGAUCUGCACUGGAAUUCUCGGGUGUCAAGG | 0.0901
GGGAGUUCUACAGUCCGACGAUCCACAGACAACACGCACCCACACAGACACAGAGGGAAGGGGUUGGGAUGGGGACAGGGUGCACAGAAGGGCGGGGUAGGACCCCAGCCCCUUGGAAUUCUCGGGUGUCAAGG | 0.212

Sample 3
Target: Sal-like protein 4, full length isoform B (SALL4, Homo sapiens, UniProt Q9UJQ4-2, residues 1-616)
Method: universal PBM
Molecule type: double-stranded DNA, one strand shown
Medium: in vitro
Tested at: not given
Notes: 8-mer, flanks averaged, mean of replicates
Reading: higher = stronger binding
Strand | E-score
AGCACGAG | 0.0377
TGCATCCA | -0.0553
CAGCGTAG | -0.193
ATCGATTG | 0.0911
AATGTCAC | 0.167
AGTTCGGC | -0.0941
TGTTATAA | 0.374
CAAGAGCC | -0.135
ACAGCGAA | 0.0557
CAGGGGAA | -0.252
ATAGCAAA | 0.246
CAACTTAG | 0.00702
GGATTTTA | 0.151
AAGGTCCT | -0.168
CGTGCGAA | -0.0777
ATACCCGG | -0.132
ACGTTTCA | 0.0446
ACCGGAGA | -0.111
CTATGGGC | -0.108
CATGCTGC | -0.218
ACGCGACG | -0.156
CAGGCATA | 0.0154

Sample 4
Target: RING finger protein unkempt homolog, zinc fingers 1-6, GST-SBP tag (UNK, Homo sapiens, UniProt Q9C0B0, residues 30-357)
Sequence of UniProt Q9C0B0 (30-357, looked up): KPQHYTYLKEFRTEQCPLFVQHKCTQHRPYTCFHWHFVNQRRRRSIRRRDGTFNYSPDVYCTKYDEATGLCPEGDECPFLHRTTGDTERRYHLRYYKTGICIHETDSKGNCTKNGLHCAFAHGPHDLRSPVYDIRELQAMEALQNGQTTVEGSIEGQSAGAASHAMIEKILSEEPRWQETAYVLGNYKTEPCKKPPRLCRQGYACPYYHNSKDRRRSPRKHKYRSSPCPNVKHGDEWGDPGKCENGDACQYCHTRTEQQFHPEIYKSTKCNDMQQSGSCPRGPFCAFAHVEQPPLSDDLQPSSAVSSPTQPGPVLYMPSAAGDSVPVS
Method: RNA Bind-n-Seq
Molecule type: RNA
Medium: in vitro
Tested at: not given
Notes: RNA with constant flanks, human and mouse sites, ends assumed
Reference: input RNA pool
Reading: higher = stronger binding
Strand | bound/input enrichment [ratio]
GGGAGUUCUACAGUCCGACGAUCUGCUACCUCAUCUACACAGAUGAAACACAGCCCGAAAUGGAACUGUUCCUUAAGGACCAUUCACCUAAACUUAAAAGAAUGUGCGAGACAAUGGGAUAUUUCUUCCUCGCUGUUUAUUUUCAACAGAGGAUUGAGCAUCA | 0.132
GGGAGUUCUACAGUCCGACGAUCAUCAAGCAGCUGAGCCAGAAUACAUACACUCCUCGUGAGGCUGGAUCUCAAAAAGAUGAAAGUCUUGCCUAUUAUAUUGAAAAUCAGUUCCAUGAAUUUAAAUUCAGCAAAGUCUGGCGACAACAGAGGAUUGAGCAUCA | 0.255
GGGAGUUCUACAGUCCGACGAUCGUGUCCACCUCAGCAGGGGGAAUAAUGACUGCACCAGCCAUUGACAUAUUUUCUACCCCUAGUUCUUCUAACAGCACAUCUAAGCUGCCAAAUGACCUGCUUGACUUGCAGCAGCCAACCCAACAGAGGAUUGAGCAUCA | 0.29
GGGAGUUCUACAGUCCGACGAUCCACCGGAGGCAUUUUCCCAACUGUCCAUUUUUGGAAAAUUCUCUAGAAACUCUGAGGUUUAGCAUUUCAAAUCUGAGCAUGCAGACACAUGCAGCUCGAAUGAGAACAUUUAUGUACUGGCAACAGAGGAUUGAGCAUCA | 0.234
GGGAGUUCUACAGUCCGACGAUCCUUUGUCUAGCAAAUAAAAGAUGUUAAUAUAUUCCUGUUAUUGGCAUGUGCACGACUGUUAUUAGAAGCCACUUUAUCAUUUUCCUGCUUUAAAUAGAAAUGUCUAUUUAUGAAUUCUGCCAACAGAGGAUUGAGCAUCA | 2.83
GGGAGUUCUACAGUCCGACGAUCAUUCCAUAUUUAUUACGGCUGAGACAAGUUAAGGAUGAAACUCUUCAGGCUGCAGUUAGAGAAAUUUUGGCUUUAAUUGGUUAUGUAGAUCCAGUGAAAGGCAGAGGAAUCCGAAUCCUCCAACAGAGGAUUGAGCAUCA | 0.551
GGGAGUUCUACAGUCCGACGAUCUGCUUCCAAACACUGACAGGGAUCAAGUUUGUGGUCCUGGCAGACCCUAGGCAAGCUGGAAUAGAUUCUCUUCUCCGAAAAAUUUAUGAAAUUUACUCAGACUUUGCCCUCAAGAAUCCACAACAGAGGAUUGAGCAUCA | 0.632
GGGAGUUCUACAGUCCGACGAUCCAUUUUCUUACAUUUUCCUGUGAUUUUCGAAACUAAACCAUUGUGUGUCCUGUAGUGUCCUGGUUGAGCUGCCGCUCAGCAGCUUCCUCGGGGGGAUUUGGAACACCUGUGUCUGUCGCCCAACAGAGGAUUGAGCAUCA | 0.27
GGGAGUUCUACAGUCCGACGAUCGAGAAAGACUUCCUAUGGAGCCACAGACACUACUGCGUAACUAUUCCUGAAAUCCUACCCAAAUUGCUUCUGUCUGUCAAGUGGAAUUCCAGAGACGAAGUGGCCCAGAUGUACUGCUUACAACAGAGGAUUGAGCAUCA | 0.223
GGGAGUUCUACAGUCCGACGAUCCACGUACAGCCCUGAAUGCAGGUGCAGUUUGGGUUUUUUGUUUUGUUUUGUUUUGUUUUAUUAGCCAGUGGGCAAAGUGAAAUGUAAUUUUGGGUAAGCCAGGGCUACUUUAGCUUUUCUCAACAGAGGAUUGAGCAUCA | 1.2
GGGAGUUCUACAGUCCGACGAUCGGAGGCUGGGAGAUGAUCAGAAAAAUUGGAGACACAUCAGUCAGUUACAAAUAUACCUCAAGAUAUGUGCUGAAGGCUGGCCAGACUGUCACAGUGUGGGCUGCAAAUGCUGGCGUCACACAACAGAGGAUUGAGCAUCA | 0.35

Sample 5
Target: Histone acetyltransferase KAT6A, both winged helices, GST fusion (KAT6A, Homo sapiens, UniProt Q92794, residues 1-181)
Method: protein binding microarray
Molecule type: double-stranded DNA, one strand shown
Medium: in vitro
Tested at: not given
Notes: 8-mer, flanks averaged, mean of 2 arrays, mostly near background
Reference: not given
Reading: higher = stronger binding
Residues (chain): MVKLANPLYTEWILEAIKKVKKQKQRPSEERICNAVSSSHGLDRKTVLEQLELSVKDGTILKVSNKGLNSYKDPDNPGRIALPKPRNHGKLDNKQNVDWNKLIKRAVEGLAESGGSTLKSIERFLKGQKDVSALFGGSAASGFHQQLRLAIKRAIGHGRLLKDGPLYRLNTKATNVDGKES
Strand | E-score
CCACACTA | -0.152
ACTAAACT | -0.14
AGGGGCGG | 0.225
GACAAGTA | -0.077
ACCGAACG | 0.144
GGCTCGAC | 0.0597
GGCATGCC | 0.157
ACGTGAAT | 0.124
GTGACAAA | -0.0713
GGAGGAGA | -0.128
CCTCGCTC | 0.081
AGGGCACA | -0.185
GCCGGCTA | 0.269
AAATAAGT | -0.167
CTTCATAA | -0.0342
GGCGAACC | 0.26
